Published values gathered from unrelated publications.
Several values in a cell are separate wells, animals, samples, runs or records. ± gives the spread as reported.
SLC6A2: Sodium-dependent noradrenaline transporter (SLC6A2, Homo sapiens, UniProt P23975)
Sequence of UniProt P23975 (whole entry, looked up): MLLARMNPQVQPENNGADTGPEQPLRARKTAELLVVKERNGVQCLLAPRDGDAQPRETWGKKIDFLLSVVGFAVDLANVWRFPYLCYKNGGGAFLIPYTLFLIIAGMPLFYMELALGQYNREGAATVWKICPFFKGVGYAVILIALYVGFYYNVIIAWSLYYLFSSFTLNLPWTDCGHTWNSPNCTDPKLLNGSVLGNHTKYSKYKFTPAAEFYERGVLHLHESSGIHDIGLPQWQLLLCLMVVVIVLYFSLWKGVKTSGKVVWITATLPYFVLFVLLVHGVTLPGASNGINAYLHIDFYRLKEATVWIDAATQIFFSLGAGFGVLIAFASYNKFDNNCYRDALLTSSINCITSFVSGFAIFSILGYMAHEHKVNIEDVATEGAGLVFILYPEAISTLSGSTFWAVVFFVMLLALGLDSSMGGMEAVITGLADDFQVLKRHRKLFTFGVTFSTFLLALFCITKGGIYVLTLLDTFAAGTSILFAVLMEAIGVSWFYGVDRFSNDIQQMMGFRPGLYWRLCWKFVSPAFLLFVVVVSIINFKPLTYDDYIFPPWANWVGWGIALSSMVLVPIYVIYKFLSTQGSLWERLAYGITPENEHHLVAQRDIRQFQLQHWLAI
VCP: Transitional endoplasmic reticulum ATPase (VCP, Homo sapiens, UniProt P55072)
Sequence of UniProt P55072 (whole entry, looked up): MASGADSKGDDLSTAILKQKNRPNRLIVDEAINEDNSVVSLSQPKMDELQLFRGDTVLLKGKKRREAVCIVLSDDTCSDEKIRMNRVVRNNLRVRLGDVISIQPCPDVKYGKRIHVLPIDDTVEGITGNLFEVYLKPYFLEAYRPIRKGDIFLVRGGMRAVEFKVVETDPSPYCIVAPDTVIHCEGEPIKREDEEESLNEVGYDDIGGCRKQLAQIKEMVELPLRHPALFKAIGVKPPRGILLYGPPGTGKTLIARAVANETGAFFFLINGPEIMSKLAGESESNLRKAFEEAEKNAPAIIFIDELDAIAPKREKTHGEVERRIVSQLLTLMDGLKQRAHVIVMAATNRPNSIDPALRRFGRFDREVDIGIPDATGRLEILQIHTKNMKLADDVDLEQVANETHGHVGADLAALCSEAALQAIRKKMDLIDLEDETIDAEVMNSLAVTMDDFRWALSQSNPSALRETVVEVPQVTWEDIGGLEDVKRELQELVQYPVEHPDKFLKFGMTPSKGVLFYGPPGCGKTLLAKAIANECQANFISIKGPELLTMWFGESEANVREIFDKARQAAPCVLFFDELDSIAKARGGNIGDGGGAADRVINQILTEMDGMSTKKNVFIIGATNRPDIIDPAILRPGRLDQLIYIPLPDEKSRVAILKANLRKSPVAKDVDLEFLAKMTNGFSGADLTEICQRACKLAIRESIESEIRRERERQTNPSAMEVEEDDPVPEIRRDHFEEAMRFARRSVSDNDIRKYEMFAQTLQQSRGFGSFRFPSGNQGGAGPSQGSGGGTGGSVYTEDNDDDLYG
KCNA2/KCNA1: KCNA2/KCNA1 (Homo sapiens, UniProt P16389+Q09470)
Sequence of UniProt P16389 (whole entry, looked up): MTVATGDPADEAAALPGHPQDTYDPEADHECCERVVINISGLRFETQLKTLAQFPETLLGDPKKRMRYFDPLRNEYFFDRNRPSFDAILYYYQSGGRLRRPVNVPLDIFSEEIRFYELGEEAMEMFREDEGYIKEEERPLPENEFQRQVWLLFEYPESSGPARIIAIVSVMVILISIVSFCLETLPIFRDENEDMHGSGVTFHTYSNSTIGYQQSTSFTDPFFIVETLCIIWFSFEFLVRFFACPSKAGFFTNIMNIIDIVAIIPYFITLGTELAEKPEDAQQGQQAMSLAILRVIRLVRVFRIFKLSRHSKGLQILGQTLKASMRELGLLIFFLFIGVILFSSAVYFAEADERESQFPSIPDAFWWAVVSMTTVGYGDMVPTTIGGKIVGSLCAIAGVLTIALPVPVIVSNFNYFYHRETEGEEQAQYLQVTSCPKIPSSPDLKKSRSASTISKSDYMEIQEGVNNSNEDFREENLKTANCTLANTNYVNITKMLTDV
Sequence of UniProt Q09470 (whole entry, looked up): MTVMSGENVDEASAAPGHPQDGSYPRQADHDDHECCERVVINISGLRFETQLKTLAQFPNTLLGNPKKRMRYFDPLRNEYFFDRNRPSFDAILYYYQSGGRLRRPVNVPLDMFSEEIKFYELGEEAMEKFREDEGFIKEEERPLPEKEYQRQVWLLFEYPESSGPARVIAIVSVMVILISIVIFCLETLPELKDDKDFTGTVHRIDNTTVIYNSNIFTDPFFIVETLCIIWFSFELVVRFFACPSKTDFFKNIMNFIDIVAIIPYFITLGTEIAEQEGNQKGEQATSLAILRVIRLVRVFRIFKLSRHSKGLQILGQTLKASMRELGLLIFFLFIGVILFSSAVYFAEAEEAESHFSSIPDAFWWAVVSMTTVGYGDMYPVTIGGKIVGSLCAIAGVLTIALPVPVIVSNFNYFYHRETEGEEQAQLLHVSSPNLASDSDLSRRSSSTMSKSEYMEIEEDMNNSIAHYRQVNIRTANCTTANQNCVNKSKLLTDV
PPO3: PPO3 (Agaricus bisporus, UniProt C7FF04)
Sequence of UniProt C7FF04 (whole entry, looked up): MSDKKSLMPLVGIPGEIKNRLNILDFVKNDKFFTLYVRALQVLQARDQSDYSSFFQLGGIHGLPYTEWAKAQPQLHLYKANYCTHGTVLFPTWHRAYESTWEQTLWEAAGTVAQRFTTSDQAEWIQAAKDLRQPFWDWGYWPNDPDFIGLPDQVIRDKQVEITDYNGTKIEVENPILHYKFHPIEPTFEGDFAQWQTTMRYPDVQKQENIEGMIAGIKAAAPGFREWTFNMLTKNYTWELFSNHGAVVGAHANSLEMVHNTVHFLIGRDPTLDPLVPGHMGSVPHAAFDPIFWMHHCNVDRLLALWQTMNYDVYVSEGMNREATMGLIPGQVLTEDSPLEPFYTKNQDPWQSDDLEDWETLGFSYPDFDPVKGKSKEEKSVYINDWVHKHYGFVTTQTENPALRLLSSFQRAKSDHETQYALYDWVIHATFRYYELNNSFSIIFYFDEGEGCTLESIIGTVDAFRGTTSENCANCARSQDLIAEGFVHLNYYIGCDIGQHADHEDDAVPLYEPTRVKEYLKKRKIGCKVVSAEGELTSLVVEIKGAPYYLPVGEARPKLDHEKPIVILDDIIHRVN
GRPR: Gastrin-releasing peptide receptor (GRPR, Homo sapiens, UniProt P30550)
Sequence of UniProt P30550 (whole entry, looked up): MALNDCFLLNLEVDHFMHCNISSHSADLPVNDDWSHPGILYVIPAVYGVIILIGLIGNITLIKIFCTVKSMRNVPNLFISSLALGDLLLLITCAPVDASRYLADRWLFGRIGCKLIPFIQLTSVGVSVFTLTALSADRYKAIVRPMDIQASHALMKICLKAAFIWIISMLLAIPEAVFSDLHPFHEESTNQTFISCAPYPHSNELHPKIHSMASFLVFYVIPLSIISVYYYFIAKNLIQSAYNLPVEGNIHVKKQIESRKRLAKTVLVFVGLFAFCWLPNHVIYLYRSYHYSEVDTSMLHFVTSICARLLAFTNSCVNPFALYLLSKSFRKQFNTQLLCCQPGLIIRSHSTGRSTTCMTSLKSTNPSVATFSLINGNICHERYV
MGLL: Monoglyceride lipase (MGLL, Homo sapiens, UniProt Q99685)
Sequence of UniProt P28074 (whole entry, looked up): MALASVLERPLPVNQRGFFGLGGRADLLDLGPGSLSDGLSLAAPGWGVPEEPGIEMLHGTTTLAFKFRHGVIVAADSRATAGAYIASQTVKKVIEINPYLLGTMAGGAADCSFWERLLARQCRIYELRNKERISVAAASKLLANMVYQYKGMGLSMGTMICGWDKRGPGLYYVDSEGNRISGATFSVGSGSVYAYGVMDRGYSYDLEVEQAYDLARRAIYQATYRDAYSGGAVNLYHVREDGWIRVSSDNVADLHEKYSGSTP
Sequence of UniProt Q99685 (whole entry, looked up): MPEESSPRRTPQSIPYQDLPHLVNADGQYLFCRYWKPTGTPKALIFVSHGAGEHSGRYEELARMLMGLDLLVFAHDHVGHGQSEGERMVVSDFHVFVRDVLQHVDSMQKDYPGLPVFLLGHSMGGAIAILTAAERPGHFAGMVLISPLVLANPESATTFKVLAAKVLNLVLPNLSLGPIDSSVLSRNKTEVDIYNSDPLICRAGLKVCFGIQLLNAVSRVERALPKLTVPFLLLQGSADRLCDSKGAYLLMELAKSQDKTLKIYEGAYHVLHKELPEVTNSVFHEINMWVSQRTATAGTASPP
Sequence of UniProt Q96HE7 (whole entry, unmodified, looked up): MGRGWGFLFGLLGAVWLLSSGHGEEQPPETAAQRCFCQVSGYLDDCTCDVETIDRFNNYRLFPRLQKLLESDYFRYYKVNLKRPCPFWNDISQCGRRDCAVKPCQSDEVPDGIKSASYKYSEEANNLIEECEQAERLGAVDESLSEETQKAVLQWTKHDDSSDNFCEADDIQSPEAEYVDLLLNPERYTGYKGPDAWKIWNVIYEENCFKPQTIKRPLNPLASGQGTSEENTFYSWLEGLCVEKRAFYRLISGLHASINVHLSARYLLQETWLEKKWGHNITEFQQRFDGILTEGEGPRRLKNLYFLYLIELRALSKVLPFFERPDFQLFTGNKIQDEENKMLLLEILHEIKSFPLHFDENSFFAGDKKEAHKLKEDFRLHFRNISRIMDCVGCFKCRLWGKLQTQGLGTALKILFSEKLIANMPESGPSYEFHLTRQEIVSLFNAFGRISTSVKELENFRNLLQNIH
Sequence of UniProt P20618 (whole entry, looked up): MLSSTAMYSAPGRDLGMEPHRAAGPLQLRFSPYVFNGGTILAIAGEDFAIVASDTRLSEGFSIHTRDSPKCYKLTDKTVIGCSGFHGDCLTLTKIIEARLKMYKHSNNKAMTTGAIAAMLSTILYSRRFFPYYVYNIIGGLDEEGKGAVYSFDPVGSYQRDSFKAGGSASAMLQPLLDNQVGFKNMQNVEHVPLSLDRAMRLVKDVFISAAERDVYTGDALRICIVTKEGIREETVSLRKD
Sequence of UniProt P00441 (whole entry, looked up): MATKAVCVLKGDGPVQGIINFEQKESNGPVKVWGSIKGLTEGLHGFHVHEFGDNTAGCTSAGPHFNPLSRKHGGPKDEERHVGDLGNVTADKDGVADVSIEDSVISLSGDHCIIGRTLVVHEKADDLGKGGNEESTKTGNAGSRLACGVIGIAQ
Sequence of UniProt P00383 (whole entry, looked up): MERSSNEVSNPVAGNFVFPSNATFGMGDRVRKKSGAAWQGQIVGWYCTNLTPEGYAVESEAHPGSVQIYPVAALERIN

C[C@H](OP(=O)(O)O)[C@H]1NC(=O)[C@@H](CCCNC(=N)N)NC(=O)[C@@H](CCCNC(=N)N)NC(=O)[C@H](CCCNC(=N)N)NC(=O)[C@H](Cc2c[nH]c3ccccc23)NC(=O)[C@H](Cc2ccc3ccccc3c2)NC(=O)[C@@H]2CCCCN2C1=O  IC50 (PIN1 (Homo sapiens, UniProt Q13526); fluorescence anisotropy competition; added: FITC-labelled probe): 1.54 ± 0.27 µM
O=C(Nc1ccc(OC(F)(F)F)cc1)N1CCC(Cc2cccc(Oc3ccc(C(F)(F)F)cn3)c2)CC1  IC50 (Faah (Rattus norvegicus, UniProt P97612); enzyme activity, inhibitor, fluorescence; rat brain microsomes; 60 min preincubation): 0.3 µM
Cc1nc(N)ccc1-c1cc(Cl)cc(C(F)(F)F)c1  IC50 (STUB1 (Homo sapiens, UniProt Q9UNE7); ubiquitylation, inhibitor, reconstituted ubiquitylation, item: tau and proteasome ubiquitylation): ~85 µM
Cc1ccc(N(O)/N=N/c2ccc(S(=O)(=O)Nc3nccs3)cc2)cc1  IC50 (α-glucosidase (rat intestine); enzyme activity, inhibitor; added: PNPG substrate): 314 µg/mL
Cc1ccc(CNC(=O)C(CCc2ccccc2)NC(=O)C(NC(=O)Cc2cccc(Oc3ccccc3)c2)C(C)O)cc1 (stereo not drawn)  IC50 (Proteasome component C5/PSMB5 (Homo sapiens, UniProt P20618+P28074); inhibitor): 0.47 µM and ~0.5 µM
COc1ccc2cc(C(=O)NCCCN3CCC(Cc4ccccc4)CC3)ccc2c1  IC50 (SLC6A2; transporter uptake, inhibitor, radiometric): 0.02 to 2.72 µM
CC(=O)Nc1cccc(Nc2nc(NC(C)c3ccccc3)c3ccccc3n2)c1 (stereo not drawn)  IC50 (VCP; ATPase activity, inhibitor, absorbance): 10.2 µM
CCCOc1cc(C)c(Cl)cc1S(=O)(=O)N(CC)CC  IC50 (Polycystin-2 (Homo sapiens, UniProt Q13563, F604P); ion current, inhibitor, two-electrode voltage clamp; Xenopus oocytes): 16.9 µM
Cc1nc(Nc2ncc(C(=O)Nc3c(C)cccc3Cl)s2)cc(N2CCN(CCOC(=O)[C@@H](N)CCCNC(=N)N)CC2)n1  IC50 (CSK (Homo sapiens, UniProt P41240); enzyme activity, inhibitor): 0.0044 µM
N#Cc1c(C(F)(F)F)cc(-c2ccc(Cl)cc2)nc1SCC(=O)N1CCOCC1  IC50 (TAAR1 (Homo sapiens, UniProt Q96RJ0)): 1.12 µM
CN(CCOc1ccc(F)cc1)C(=O)c1cccc(S(=O)(=O)N2CCc3ccccc3C2)c1  IC50 (KCNA2/KCNA1; potassium current, inhibitor, automated patch clamp; CHO-K1, concatemer expressing): 0.93 µM
CC(C)C[C@H](NC(=O)OCc1cccc(Cl)c1)C(=O)N[C@H](C=O)C[C@H]1CCNC1=O  IC50 (Genome polyprotein, 3C protease (rhinovirus B14, UniProt P03303); 3C protease activity, inhibitor, FRET): 0.2 ± 0.03 µM
O=C(O)c1ccc(OCCCCCCCCOc2ccc(C(=O)O)cc2)cc1  IC50 (Dihydrofolate reductase type 2 (Escherichia coli, UniProt P00383); enzyme activity, inhibitor; pH 7): ≥ 500 µM
Clc1cccc(Nc2nc(NCc3ccccc3)c3ccccc3n2)c1  IC50 (VCP; enzyme activity, inhibitor): 0.4 µM
COc1cc(O)cc(-c2cc3ccc(OC)cc3o2)c1  IC50 (PPO3; enzyme activity, inhibitor, absorbance; pH 6.8): 68.2 µM
CNCc1c(OCc2ccc(F)cc2)ccc2ccccc12  IC50 (SLC6A2; transporter uptake, inhibitor, radiometric): 2.09 µM
CN1CCc2cc(Nc3ncc(C(F)(F)F)c(NCc4cc[nH]n4)n3)ccc2C1  IC50 (MARK4 (Homo sapiens, UniProt Q96L34); enzyme activity, inhibitor, FRET): 0.00201 µM
CC(C)C[C@H]1CN[C@H](C(N)=O)CSSC[C@@H](N)C(=O)N[C@@H](CCC(N)=O)C(=O)N[C@@H](Cc2c[nH]c3ccccc23)C(=O)N[C@@H](C)C(=O)N[C@@H](C(C)C)C(=O)N[C@H](C)C(=O)N[C@@H](Cc2c[nH]cn2)C(=O)N1  IC50 (GRPR; binding, radioligand displacement; Balb 3T3 or HuTu-80): > 1 µM
CCOc1c(C(C)(C)O)sc2cnc(Nc3ccc(N4CCC(N5CC6(COC6)C5)CC4)cc3OC)nc12  IC50 (CACNA1C (Homo sapiens, UniProt Q13936); ion current, inhibitor, patch clamp): > 30 µM
O=C(O)c1cc(N2N=C(C(F)(F)F)/C(=C\c3ccc(-c4ccccc4)o3)C2=O)ccc1Cl  IC50 (ERO1-like protein alpha (Homo sapiens, UniProt Q96HE7, C104A/C131A/C166A); enzyme activity, inhibitor, fluorescence): 16.5 µM
C=C1C[C@@]2(C(=O)OC)C=C(C(=O)Nc3cccc(C(=O)Nc4ccc(Nc5nccc(-c6cccnc6)n5)c(C)c4)c3)C(=O)[C@@H]1C2  IC50 (MAPK8 (Homo sapiens, UniProt P45983); kinase activity, inhibitor; added: GSH 10 mM): 0.128 ± 0.003 µM
C[C@@]12CC[C@@H]3c4cc(Br)c(O)c(Br)c4CC[C@H]3[C@@H]1CCC2=O  IC50 (AKR1C1 (Homo sapiens, UniProt Q04828); enzyme activity, inhibitor, absorbance; pH 9): 5.3 µM
N=C(NCCCCC(N)C(N)=O)NCCCSCC1OC(n2cnc3c(N)ncnc32)C(O)C1O (stereo not drawn)  IC50 (SETD7 (Homo sapiens, UniProt Q8WTS6); enzyme activity, inhibitor, fluorescence): > 100 µM
CCC(CC)N[C@H](Cc1ccccc1)C(=O)N[C@@H](CCC(N)=O)C(=O)N[C@@H](Cc1c[nH]c2ccccc12)C(=O)N[C@@H](C)C(=O)N[C@H](C(=O)N[C@H](C)C(=O)N[C@@H](Cc1c[nH]cn1)C(=O)N[C@@H](CC(C)C)C(=O)N[C@@H](CC(C)C)C(N)=O)C(C)C  IC50 (GRPR; ligand displacement in cells, radioligand): 0.0166 µM
CNC(=O)C1CCN(c2ccccc2NC(=O)c2ccc(-c3ccccc3C)c(C)c2)CC1  IC50 (EPHA5 (Homo sapiens, UniProt P54756); target engagement in cells, BRET): 3.77 µM
CC(C)C[C@@H](NC(=O)[C@H](Cc1ccc(I)cc1)NC(=O)CCc1cccc([N+](=O)[O-])c1)C(=O)NCC1(CC(=O)N[C@@H](CS)C(N)=O)CCCCC1  IC50 (EP300 (Homo sapiens, UniProt Q09472); enzyme activity, inhibitor, radiometric): > 100 µM
CCN(CC)CCCNc1c2c(c(C#N)c3nc4ccccc4n13)CCC2  IC50 (ERO1-like protein alpha (Homo sapiens, UniProt Q96HE7); enzyme activity, inhibitor, fluorescence): 23.7 µM
O=C(NCCc1ccccn1)[C@@H]1Cc2ccccc2CN1S(=O)(=O)c1ccc2ccccc2c1  IC50 (KCNA2/KCNA1; potassium current, inhibitor, automated patch clamp; CHO-K1, concatemer expressing): 1.53 µM
Nc1ncnc2c1ncn2C1OC(COP(=O)(O)O)C(O)C1O (stereo not drawn)  IC50 (Chemotaxis protein CheA (Escherichia coli, UniProt P07363); enzyme activity, inhibitor, radiometric): 7640 µM
CN(C)CC1C2CN(c3cc(-c4ccccc4F)nc4ccnn34)CC12 (stereo not drawn)  IC50 (Transcriptional enhancer factor TEF-3, YAP-binding domain (TEAD4, Homo sapiens, UniProt Q15561)): 0.336 µM
NS(=O)(=O)c1ccc(N2N=C(C(F)(F)F)CC2c2ccc(F)cc2F)cc1 (stereo not drawn)  IC50 (Prostaglandin G/H synthase 1 (Canis lupus familiaris, UniProt Q8HZR1); TXB2 formation, inhibitor; clotting dog whole blood; 1 h, 37 °C): 37.5 µM
Cc1[nH]nc2c1N=C(c1ccccc1Cl)c1cnc(N3CCOCC3)cc1N2  IC50 (CSF1R (Homo sapiens, UniProt P07333); enzyme activity, inhibitor): 0.007 µM
COCCn1cc(COc2cccc(Cc3cnc(NC(=O)CSc4nc(C)cc(C)n4)s3)c2)nn1  IC50 (SIRT1 (Homo sapiens, UniProt Q96EB6); enzyme activity, inhibitor, fluorescence): > 100 µM
COc1ccc2c(c1)c1c(n2CO)CN2CCc3cc(OCc4cccc(F)c4)c(OC)cc3C2C1 (stereo not drawn)  IC50 (DRD1 (Homo sapiens, UniProt P21728); calcium signal, antagonist): > 100 µM
Cc1cc2c(NC(=O)N[C@@H]3CC(C)(C)Oc4cc(C(F)(F)F)ccc43)c(C)ccc2cn1  IC50 (TRPV1 (Homo sapiens, UniProt Q8NER1); calcium signal, antagonist, fluorescence): 0.144 µM
O=C(NCc1ccc2c(c1)OCO2)c1ccnc(C(=O)NCc2ccc3c(c2)OCO3)c1  IC50 (Collagenase 3 (MMP13, Homo sapiens, UniProt P45452); enzyme activity, inhibitor): 0.077 µM and 0.14 µM
CC1=C(/C=C/C(C)=C/C=C/C(C)=C/C=C/C=O)C(C)(C)CCC1  IC50 (CNGA1 (Bos taurus, UniProt Q00194); cGMP-activated current, inhibitor, inside-out patch clamp; Xenopus oocytes; 1 h steady state, +100 mV, added: 2 mM cGMP): 0.415 µM
O=C(NCCCN1CCC(Cc2ccccc2)CC1)c1ccc2ccccc2n1  IC50 (SLC6A3 (Homo sapiens, UniProt Q01959); transporter uptake, inhibitor, radiometric): > 10 µM
O=C(OC(C(F)(F)F)C(F)(F)F)N1CCC(CCn2ccc3cnccc32)CC1  IC50 (MGLL; enzyme activity, inhibitor): 1.1 µM
COc1ccc(NCc2cc(=O)c(O)c[nH]2)cc1  IC50 (PPO3; enzyme activity, inhibitor, absorbance; pH 6.5): 657 µM
O=C(OC(C(F)(F)F)C(F)(F)F)N1CCC(CCn2ccc3ncccc32)CC1  IC50 (MGLL; enzyme activity, inhibitor): 0.3 µM
O=c1c(/C=N/NC(=S)N/N=C/c2cc(Cl)ccc2O)coc2ccccc12  IC50 (SOD1 (Homo sapiens, UniProt P00441); enzyme activity, inhibitor; HeLa; 24 h): 0.18 µM

A few entries again:
CN(CCOc1ccc(F)cc1)C(=O)c1cccc(S(=O)(=O)N2CCc3ccccc3C2)c1  IC50 (KCNA2/KCNA1; potassium current, inhibitor, automated patch clamp; CHO-K1, concatemer expressing): 0.93 µM
CC(C)C[C@H](NC(=O)OCc1cccc(Cl)c1)C(=O)N[C@H](C=O)C[C@H]1CCNC1=O  IC50 (Genome polyprotein, 3C protease (rhinovirus B14, UniProt P03303); 3C protease activity, inhibitor, FRET): 0.2 ± 0.03 µM
O=C(O)c1ccc(OCCCCCCCCOc2ccc(C(=O)O)cc2)cc1  IC50 (Dihydrofolate reductase type 2 (Escherichia coli, UniProt P00383); enzyme activity, inhibitor; pH 7): ≥ 500 µM
Clc1cccc(Nc2nc(NCc3ccccc3)c3ccccc3n2)c1  IC50 (VCP; enzyme activity, inhibitor): 0.4 µM
COc1cc(O)cc(-c2cc3ccc(OC)cc3o2)c1  IC50 (PPO3; enzyme activity, inhibitor, absorbance; pH 6.8): 68.2 µM
CNCc1c(OCc2ccc(F)cc2)ccc2ccccc12  IC50 (SLC6A2; transporter uptake, inhibitor, radiometric): 2.09 µM
